Results pooled from the literature.
A part holds a random share of what one study measured.
Chain of UniProt P53779 (whole entry, looked up): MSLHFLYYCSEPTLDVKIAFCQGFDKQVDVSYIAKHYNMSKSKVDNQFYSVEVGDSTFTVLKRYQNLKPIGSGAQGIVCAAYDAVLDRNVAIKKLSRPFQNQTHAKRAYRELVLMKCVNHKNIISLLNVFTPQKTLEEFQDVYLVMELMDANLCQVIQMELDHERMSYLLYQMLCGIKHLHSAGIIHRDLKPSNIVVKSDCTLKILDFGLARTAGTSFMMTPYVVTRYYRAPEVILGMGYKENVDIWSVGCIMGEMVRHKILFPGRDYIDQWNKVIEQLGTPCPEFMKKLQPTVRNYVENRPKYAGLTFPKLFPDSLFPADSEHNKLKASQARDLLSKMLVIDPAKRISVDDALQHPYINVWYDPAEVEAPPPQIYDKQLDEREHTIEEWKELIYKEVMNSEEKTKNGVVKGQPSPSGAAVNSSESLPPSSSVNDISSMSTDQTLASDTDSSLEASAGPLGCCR
Chain of UniProt P10721 (whole entry, unmodified, looked up): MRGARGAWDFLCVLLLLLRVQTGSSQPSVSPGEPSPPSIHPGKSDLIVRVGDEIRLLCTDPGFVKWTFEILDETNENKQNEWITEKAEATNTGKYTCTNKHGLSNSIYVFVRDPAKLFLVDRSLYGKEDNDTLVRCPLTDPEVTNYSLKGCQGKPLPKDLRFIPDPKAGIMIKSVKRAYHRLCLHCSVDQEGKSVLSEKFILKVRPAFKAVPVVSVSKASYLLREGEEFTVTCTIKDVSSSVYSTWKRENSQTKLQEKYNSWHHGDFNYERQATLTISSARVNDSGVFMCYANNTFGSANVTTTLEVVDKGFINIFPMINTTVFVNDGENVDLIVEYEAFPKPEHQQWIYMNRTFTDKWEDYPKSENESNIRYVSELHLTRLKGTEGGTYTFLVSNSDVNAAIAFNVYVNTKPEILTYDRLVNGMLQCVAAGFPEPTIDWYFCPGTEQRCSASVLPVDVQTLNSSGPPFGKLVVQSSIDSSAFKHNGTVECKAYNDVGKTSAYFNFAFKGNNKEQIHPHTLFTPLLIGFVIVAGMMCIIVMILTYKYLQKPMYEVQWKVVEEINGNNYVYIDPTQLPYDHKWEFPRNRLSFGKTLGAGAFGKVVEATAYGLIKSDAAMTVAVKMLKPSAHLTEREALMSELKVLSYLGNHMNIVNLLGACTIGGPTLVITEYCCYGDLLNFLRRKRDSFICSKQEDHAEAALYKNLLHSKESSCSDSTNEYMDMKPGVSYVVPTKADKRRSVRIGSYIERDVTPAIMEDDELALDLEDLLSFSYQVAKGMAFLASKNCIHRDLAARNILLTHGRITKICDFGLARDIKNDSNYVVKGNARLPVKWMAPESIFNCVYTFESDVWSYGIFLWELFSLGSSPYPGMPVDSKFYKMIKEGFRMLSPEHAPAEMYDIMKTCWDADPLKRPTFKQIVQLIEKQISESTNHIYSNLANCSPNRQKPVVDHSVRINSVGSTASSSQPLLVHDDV
Chain of UniProt P09769 (whole entry, looked up): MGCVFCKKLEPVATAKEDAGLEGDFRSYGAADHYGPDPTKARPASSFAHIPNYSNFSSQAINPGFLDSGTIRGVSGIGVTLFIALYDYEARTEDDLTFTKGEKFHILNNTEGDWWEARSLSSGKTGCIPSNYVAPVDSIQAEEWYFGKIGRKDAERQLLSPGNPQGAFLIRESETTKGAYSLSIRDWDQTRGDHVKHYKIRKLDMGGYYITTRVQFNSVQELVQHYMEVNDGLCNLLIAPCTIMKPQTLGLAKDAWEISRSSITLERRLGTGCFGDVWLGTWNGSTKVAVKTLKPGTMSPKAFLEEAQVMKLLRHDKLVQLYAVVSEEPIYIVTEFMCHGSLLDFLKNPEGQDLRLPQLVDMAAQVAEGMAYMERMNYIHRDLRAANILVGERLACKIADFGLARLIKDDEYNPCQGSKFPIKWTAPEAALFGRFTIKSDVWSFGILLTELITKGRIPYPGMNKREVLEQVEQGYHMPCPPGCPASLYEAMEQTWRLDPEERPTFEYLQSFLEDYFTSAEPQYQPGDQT
Chain of UniProt Q16288 (whole entry, looked up): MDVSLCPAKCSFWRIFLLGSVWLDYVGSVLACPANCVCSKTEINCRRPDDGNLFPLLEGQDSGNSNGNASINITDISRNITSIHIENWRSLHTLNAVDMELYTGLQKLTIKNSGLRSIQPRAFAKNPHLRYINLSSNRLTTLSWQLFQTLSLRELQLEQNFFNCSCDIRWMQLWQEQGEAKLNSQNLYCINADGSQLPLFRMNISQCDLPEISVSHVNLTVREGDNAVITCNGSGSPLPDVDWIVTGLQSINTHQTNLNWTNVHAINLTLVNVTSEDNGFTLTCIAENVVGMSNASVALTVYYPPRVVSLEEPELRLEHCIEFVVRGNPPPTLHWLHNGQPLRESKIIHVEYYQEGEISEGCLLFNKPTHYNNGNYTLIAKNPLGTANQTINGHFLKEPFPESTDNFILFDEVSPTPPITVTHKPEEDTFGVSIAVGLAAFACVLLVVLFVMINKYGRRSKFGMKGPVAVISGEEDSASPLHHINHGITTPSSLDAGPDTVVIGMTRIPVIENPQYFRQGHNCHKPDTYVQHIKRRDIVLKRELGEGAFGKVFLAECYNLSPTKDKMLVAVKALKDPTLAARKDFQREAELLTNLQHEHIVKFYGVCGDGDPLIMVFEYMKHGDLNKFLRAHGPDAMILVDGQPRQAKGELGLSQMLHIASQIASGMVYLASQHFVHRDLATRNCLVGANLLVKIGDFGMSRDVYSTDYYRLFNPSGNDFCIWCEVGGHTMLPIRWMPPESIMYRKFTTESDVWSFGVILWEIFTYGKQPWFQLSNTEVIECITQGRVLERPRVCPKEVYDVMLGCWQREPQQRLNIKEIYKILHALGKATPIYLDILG
Chain of UniProt Q9UEE5 (whole entry, looked up): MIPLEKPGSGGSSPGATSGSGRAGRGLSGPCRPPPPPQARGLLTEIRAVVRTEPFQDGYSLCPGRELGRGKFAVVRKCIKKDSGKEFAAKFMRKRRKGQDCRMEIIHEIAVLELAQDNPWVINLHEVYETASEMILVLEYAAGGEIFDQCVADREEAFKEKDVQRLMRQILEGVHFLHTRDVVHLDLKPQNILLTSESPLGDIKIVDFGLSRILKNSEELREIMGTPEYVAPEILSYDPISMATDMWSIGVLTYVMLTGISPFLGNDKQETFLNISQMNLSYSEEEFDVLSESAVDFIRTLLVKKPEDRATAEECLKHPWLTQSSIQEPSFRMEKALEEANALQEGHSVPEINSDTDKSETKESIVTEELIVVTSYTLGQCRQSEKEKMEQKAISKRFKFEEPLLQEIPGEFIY
Chain of UniProt P34947 (whole entry, looked up): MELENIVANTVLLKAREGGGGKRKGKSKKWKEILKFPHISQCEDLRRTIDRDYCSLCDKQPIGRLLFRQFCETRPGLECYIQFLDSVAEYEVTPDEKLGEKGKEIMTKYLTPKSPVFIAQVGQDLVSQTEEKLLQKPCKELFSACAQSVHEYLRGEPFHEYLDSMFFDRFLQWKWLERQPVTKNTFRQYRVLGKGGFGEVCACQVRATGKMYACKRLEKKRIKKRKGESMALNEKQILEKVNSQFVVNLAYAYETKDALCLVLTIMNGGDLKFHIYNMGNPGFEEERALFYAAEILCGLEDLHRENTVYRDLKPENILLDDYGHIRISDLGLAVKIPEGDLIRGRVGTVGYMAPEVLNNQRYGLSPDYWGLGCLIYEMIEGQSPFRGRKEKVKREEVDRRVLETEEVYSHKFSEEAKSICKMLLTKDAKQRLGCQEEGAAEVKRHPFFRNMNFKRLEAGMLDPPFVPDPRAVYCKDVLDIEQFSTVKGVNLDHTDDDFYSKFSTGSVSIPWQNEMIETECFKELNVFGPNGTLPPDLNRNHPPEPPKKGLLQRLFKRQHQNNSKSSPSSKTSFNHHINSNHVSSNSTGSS
Chain of UniProt Q9H2G2 (whole entry, looked up): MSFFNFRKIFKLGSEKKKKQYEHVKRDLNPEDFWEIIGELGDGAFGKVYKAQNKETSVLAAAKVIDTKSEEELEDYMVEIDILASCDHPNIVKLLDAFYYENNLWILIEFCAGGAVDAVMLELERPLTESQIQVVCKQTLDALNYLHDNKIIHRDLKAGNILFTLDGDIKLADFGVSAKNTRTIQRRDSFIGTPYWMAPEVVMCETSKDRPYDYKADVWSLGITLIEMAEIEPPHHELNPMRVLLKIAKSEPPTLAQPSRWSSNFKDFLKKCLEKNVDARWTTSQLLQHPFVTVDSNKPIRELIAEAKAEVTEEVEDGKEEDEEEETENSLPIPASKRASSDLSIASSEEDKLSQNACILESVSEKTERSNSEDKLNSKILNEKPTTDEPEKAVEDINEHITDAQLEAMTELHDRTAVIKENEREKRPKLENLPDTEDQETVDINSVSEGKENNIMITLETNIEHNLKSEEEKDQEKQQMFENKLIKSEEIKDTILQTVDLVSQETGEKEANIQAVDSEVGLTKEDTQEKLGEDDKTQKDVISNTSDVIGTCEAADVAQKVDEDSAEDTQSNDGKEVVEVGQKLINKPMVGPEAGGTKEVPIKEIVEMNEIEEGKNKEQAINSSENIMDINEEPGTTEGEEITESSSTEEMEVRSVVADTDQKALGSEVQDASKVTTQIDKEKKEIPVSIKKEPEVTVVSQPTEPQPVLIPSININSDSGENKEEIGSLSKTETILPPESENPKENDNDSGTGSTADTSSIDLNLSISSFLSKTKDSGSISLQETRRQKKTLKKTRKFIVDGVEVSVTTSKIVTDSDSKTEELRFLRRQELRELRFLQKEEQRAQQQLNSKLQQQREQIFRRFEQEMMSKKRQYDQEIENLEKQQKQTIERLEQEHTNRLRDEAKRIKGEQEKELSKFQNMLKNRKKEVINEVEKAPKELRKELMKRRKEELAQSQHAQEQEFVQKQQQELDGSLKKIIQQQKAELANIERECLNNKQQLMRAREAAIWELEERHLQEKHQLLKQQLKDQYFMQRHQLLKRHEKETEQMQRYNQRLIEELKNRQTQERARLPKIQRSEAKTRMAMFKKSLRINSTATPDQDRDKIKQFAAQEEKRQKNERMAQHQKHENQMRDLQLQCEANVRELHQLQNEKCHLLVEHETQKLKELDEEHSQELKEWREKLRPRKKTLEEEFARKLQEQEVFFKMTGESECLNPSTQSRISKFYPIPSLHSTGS

Sample 1
SMILES: CCCOc1ccc([C@@H]2[C@@H](C(=O)O)[C@H](c3ccc4c(c3)OCO4)CN2CC(=O)Nc2c(CC)cccc2CC)cc1
Read-out: cell-free assay
Method: competition with immobilised ligand
Concentration: 1 µM
Quantity: remaining binding
PDPK1 (Homo sapiens, UniProt O15530): 100%
PRKACB (Homo sapiens, UniProt P22694): 100%
WEE2 (Homo sapiens, UniProt P0C1S8): 87%
INSRR (Homo sapiens, UniProt P14616): 100%
EPHA3 (Homo sapiens, UniProt P29320): 99%
KIT (Homo sapiens, UniProt P10721, T670I/V559D): 100%
MAPK10 (Homo sapiens, UniProt P53779): 95%
NEK11 (Homo sapiens, UniProt Q8NG66): 81%
STK33 (Homo sapiens, UniProt Q9BYT3): 69%
MAPK3 (Homo sapiens, UniProt P27361): 93%
EGFR (Homo sapiens, UniProt P00533, G719S): 100%
Mast/stem cell growth factor receptor Kit, autoinhibited (KIT, Homo sapiens, UniProt P10721): 82%
EGFR (Homo sapiens, UniProt P00533): 87%
FGR (Homo sapiens, UniProt P09769): 93%
PIM1 (Homo sapiens, UniProt P11309): 89%

Sample 2
Cell line: HaCaT
Concentration: 100 µM
Time: 60 h
Quantity: viability
Cc1cccn2c(=O)c(-c3nnn[nH]3)cnc12: 118%
CC(=O)OCC(=O)[C@@]1(O)CC[C@H]2[C@@H]3CCC4=CC(=O)CC[C@]4(C)[C@H]3[C@@H](O)C[C@@]21C: 127%
CCCc1nc2c(C)cc(-c3nc4ccccc4n3C)cc2n1Cc1ccc(-c2ccccc2C(=O)O)cc1: 67.9%
NC(=O)c1ccccc1O: 115%
O=C(O)[C@@H](S)[C@@H](S)C(=O)O: 162%
CN(C)CCOC(=O)COc1ccc(Cl)cc1: 129%
Cc1cnc(C(=O)O)c[n+]1[O-]: 85.2%
CC(C(=O)O)c1ccc2c(c1)Cc1cccnc1O2 (centres unmarked): 57.1%
COc1ccnc(C[S+]([O-])c2nc3ccc(OC(F)F)cc3[nH]2)c1OC (centres unmarked): 88.3%
O=c1[nH]c(=O)n(C2CCCO2)cc1F (centres unmarked): 91.1%

Sample 3
SMILES: CC(C)S(=O)(=O)c1ccc2nccc(Nc3ccc4sc(C5CCCC5)nc4c3)c2c1.Cl
Read-out: kinase activity
Action: inhibitor
Concentration: 1 µM
Quantity: remaining activity
FGR (Homo sapiens, UniProt P09769): 90%
STK10 (Homo sapiens, UniProt O94804): 96%
EPHA5 (Homo sapiens, UniProt P54756): 99%
NEK3 (Homo sapiens, UniProt P51956): 105%
JAK3 (Homo sapiens, UniProt P52333): 97%
STK17A (Homo sapiens, UniProt Q9UEE5): 109%

Sample 4
SMILES: CC(C)(C)n1nc(Cc2cccc3ccccc23)c2c(N)ncnc21
Read-out: enzyme activity
Action: inhibitor
Concentration: 0.5 µM
Relative to: control
Quantity: remaining activity
Cyclin-dependent kinase 2, with cyclin A (CDK2, Homo sapiens, UniProt P24941): 99.4%
MAP3K2 (Homo sapiens, UniProt Q9Y2U5): 87.8%
PTK2B (Homo sapiens, UniProt Q14289): 106%
PKN2 (Homo sapiens, UniProt Q16513): 106%
ROS1 (Homo sapiens, UniProt P08922): 87.9%
SLK (Homo sapiens, UniProt Q9H2G2): 94.9%
NTRK3 (Homo sapiens, UniProt Q16288): 92.8%
HIPK3 (Homo sapiens, UniProt Q9H422): 96.6%
MAPK10 (Homo sapiens, UniProt P53779): 106%
MAP3K8 (Homo sapiens, UniProt P41279): 94.2%
CAMK1G (Homo sapiens, UniProt Q96NX5): 104%
RET (Homo sapiens, UniProt P07949): 25.5%
CAMK1D (Homo sapiens, UniProt Q8IU85): 105%
Aurora kinase A (AURKA, Homo sapiens, UniProt O14965): 98.6%
NEK9 (Homo sapiens, UniProt Q8TD19): 105%
PRKD1 (Homo sapiens, UniProt Q15139): 26.2%
CDK7 (Homo sapiens, UniProt P50613): 100%
DMPK (Homo sapiens, UniProt Q09013): 93.2%
GRK5 (Homo sapiens, UniProt P34947): 98.7%
EGFR (Homo sapiens, UniProt P00533): 67.8%
BRSK1 (Homo sapiens, UniProt Q8TDC3): 90.4%
DYRK4 (Homo sapiens, UniProt Q9NR20): 98.5%

Some of these lines once more (sample 4):
RET (Homo sapiens, UniProt P07949): 25.5%
MAP3K8 (Homo sapiens, UniProt P41279): 94.2%
MAP3K2 (Homo sapiens, UniProt Q9Y2U5): 87.8%
EGFR (Homo sapiens, UniProt P00533): 67.8%
ROS1 (Homo sapiens, UniProt P08922): 87.9%
HIPK3 (Homo sapiens, UniProt Q9H422): 96.6%
DYRK4 (Homo sapiens, UniProt Q9NR20): 98.5%
NEK9 (Homo sapiens, UniProt Q8TD19): 105%
